Measurements collected from several papers.
Numbered parts are unrelated; each lists some results of a single study. Changes are numbered by the printed parent chain.

Set 1 — target: CCNB3, cyclin fold, Cln2 fusion (human); technique: yeast growth competition, sequencing; medium: yeast; setting: weak parent motif; relative to: not given; direction: higher = stronger binding
Starting sequence: CDAN1 docking peptide (human); RGARSQLFPPTEA; partner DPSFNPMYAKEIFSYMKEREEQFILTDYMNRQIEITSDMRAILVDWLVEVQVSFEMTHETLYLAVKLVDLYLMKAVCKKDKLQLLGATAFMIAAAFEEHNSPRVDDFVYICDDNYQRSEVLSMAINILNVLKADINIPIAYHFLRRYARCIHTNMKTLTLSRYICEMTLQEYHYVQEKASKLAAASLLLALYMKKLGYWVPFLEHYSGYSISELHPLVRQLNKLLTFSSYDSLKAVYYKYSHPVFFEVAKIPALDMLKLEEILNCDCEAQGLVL
| Variant | normalised enrichment score |
| --- | --- |
| RGARSQLFPPTAA [E12A] | 0.299 |
| RGAASQLFPPTEA [R4A] | -0.213 |
| RGARSQLFPPAEA [T11A] | 0.128 |
| RGARSQAFPPTEA [L7A] | -0.0522 |
| RGARAQLFPPTEA [S5A] | 0.209 |

Set 2 — technique: RNA Bind-n-Seq; molecule type: RNA; medium: in vitro; tested at: not given; setting: RNA with constant flanks, ends assumed; relative to: input RNA pool; direction: higher = stronger binding
Target: RING finger protein unkempt homolog, zinc fingers 1-6, GST-SBP tag (UNK, Homo sapiens, UniProt Q9C0B0, residues 30-357)
Sequence of UniProt Q9C0B0 (30-357, looked up): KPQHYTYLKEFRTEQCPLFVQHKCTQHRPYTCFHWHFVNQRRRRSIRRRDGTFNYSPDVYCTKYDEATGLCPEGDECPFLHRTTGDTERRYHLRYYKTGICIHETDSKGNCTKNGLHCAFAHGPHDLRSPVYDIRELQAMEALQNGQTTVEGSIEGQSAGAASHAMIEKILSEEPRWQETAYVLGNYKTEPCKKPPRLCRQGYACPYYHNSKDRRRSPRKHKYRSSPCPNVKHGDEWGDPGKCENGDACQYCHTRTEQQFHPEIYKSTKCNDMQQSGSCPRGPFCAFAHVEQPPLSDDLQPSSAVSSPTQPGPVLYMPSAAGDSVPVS
| Strand | bound/input enrichment |
| --- | --- |
| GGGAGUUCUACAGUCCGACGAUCGAAAAGCCAUCUCCUAUUCAGGAGGAGAGCAUUCCCAUUGCUUUAUCUGGUAGGGAUAUCUCCGCCCGAGCAAAAAAUGGAACAGGCAAGAGCGGUGCCUACCUCAUUCCCUUACUUGAACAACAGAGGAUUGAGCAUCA | 0.138 ratio |
| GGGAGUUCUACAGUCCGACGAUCCCUCCUCCAUCGAGGGAGAGGCCUGAAGGGACUGCCUACUGCAGCUCGUUGCCAAUCACACCGCUUUCUAUUUGUUAAGUAUAAAUUUAAAUUUAAAAUCACUUUUUUAACGAAUGGGGGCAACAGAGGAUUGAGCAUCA | 0.167 ratio |
| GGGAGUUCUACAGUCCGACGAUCAAUGAACACUUUAAUAUUUUCCUUACUGCUAAGGACCUGAACGCCUACAAGAAGCAAGGGACCGCAUUGCUGACCAGAAUGGGCGAGUCAGUCAAGCACGUCACUGGCGGCUACAAGCUGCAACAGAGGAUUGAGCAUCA | 0.214 ratio |
| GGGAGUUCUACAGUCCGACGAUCGCAGAUUUCUGUGCAUCGUGCUGUGAACCUCUGAUGACCCUAAAGUUAUCUAUGUUCUCCUCCGUGGAAUAUUUCCUUUUGAGAGAUUGUAUAUUUUAAAAUACUGUCUAGAGUUUAUGACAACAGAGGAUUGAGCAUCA | 0.351 ratio |
| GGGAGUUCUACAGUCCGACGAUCAGCAGGAAGAAUGUGCUUGGUCACAUGCAGCAGGGUGGGAGCCCAACCCCAUUUGACCGGAAUUUUGCCACUAAGAUGGGCGCCAAGGCUAUGAACUGGAUGUCUGGGAAAAUCAAAGAGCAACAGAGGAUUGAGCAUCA | 0.24 ratio |
| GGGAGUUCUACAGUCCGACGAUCUCUGUCUGACUCCUGGGUCUGUGCGCCAUGGCAUGAGUGUUUUCUAGUAGUAGACUGGAGCCGCCGACUGUUUCUAAGAACAGAUGAUCUGGUUCCUGAUGUGUAGAGACUCUUAUGUACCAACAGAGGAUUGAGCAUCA | 0.381 ratio |
| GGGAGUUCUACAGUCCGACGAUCCACUAAAUGGCAGGCACUUGAAAAUGGGUGGAUUUCCCUUGUCGUUGUCUUUUCUAUUGACCGUUGGGAUUUGGGAGAGAAGAAAGAGGUUUUCGAAACUGAAUCACUACUGAGUUGAACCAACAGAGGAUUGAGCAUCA | 0.256 ratio |

Set 3 — technique: universal PBM; molecule type: double-stranded DNA, one strand shown; medium: in vitro; tested at: 600 nM; direction: higher = stronger binding
Target: Sal-like protein 4, full length isoform A (SALL4, Homo sapiens, UniProt Q9UJQ4, residues 1-1053)
Sequence of UniProt Q9UJQ4 (whole entry, looked up): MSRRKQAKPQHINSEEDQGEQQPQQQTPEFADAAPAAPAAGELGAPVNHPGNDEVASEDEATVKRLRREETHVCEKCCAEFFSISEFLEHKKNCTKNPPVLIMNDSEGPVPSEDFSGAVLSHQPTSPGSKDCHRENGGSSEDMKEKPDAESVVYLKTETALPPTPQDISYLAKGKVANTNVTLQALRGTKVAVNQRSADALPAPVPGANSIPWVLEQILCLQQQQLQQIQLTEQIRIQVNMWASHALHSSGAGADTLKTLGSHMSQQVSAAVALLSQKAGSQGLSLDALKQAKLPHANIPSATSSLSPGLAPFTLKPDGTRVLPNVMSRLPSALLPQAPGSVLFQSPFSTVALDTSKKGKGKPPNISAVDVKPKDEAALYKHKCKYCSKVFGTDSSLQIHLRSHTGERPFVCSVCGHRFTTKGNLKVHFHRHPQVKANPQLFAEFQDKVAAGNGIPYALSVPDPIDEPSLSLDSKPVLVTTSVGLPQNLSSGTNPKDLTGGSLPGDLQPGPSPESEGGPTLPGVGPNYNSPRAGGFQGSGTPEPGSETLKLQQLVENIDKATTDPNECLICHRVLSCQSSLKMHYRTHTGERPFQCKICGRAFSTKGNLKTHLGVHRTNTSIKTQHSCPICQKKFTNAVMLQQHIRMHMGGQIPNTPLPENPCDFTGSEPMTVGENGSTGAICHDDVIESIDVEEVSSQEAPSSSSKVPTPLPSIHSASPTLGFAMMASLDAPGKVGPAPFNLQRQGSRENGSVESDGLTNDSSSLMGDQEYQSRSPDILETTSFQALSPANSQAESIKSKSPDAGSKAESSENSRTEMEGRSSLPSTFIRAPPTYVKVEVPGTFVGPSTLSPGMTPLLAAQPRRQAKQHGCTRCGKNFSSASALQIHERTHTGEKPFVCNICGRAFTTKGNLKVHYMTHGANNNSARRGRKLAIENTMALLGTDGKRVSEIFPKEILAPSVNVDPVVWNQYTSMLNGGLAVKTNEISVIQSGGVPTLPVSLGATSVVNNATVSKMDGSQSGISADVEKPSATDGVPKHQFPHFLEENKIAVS
Setting: 8-mer, flanks averaged, mean of replicates
| Strand | E-score |
| --- | --- |
| AAAAGAAC | 0.0436 |
| AATACAGA | 0.213 |
| CCTCGAGC | -0.211 |
| CAGTGTCG | -0.258 |
| GTATGGAA | 0.101 |
| ACGCAGAG | -0.105 |
| CCTCAGCG | -0.158 |

Mixed results
| Molecule | target | assay | test system | conditions | scale | quantity | result |
| --- | --- | --- | --- | --- | --- | --- | --- |
| PhoQ, residues 284 288 289 292 302 303 WVSSAF | PhoP, residues 12 14 15 18 19 STWGI (Escherichia coli, UniProt P23836) | Sort-seq, refers to: YFP reporter | E. coli | PhoQ-PhoP variant library, together with: 10 µM Mg2+ | relative to: high Mg2+ state, higher = stronger signaling | fold induction | 13 |

Excerpt of the above (set 1):
| Variant | normalised enrichment score |
| --- | --- |
| RGARSQLFPPTAA [E12A] | 0.299 |
| RGAASQLFPPTEA [R4A] | -0.213 |
